Measured values pooled from the literature.
Each line is one published result; not all experiments were run side by side. Numbers after ± are the reported error.

| SMILES | test system | conditions | how to read | quantity | result |
| --- | --- | --- | --- | --- | --- |
| C=CC(=O)N1CCC(Oc2cc3c(Nc4ccc(Cl)c(Cl)c4F)ncnc3cc2OC)CC1 | Sprague-Dawley rat male, plasma | oral, 2 mg/kg, together with: schisandrin A 20 mg/kg daily 1 weeks pretreatment | baseline: no pretreatment | Cmax ratio | 1.17 fold |
| Cn1c(C(F)(F)F)cc(=O)n(-c2cc(Oc3cccnc3OCC(=O)O)c(Cl)cc2F)c1=O | Crl:CD(SD) rats, male, plasma | oral diet, 50 ppm in diet, day 1, 90-day toxicity study | – | Cmax | 52.3 ng/mL |
| Cc1cccc(CNC(=O)c2cn(CCNC(=O)c3ccccc3S)c3cc4c(cc3c2=O)OC(F)(F)O4)n1 | Sprague-Dawley rat, male, whole blood | intramuscular, 30 mg/kg of parent drug | – | Cmax | 388 ± 171 ng/mL |
| Cc1nc2cccc(OCC(C)(C)C(=O)NC(C)C)c2c(N)c1C(=O)O | male Sprague-Dawley rat, plasma | dietary, 60 mg/kg/day | baseline: day 90 over day 7 | Cmax ratio | 9.18 |
| CCCC(CCC)NC(=O)c1ccc2c(c1)OCO2 | Sprague-Dawley rats, plasma | oral, 200 mg/kg | baseline: female over male | Cmax ratio | 0.87 |
| C=CC(=O)N1CCC[C@@H](n2nc(-c3ccc(Oc4ccccc4)cc3)c3c(N)ncnc32)C1 | male Wistar rat, spleen | oral, 50 mg/kg | – | Cmax | 188 ± 59.7 ng/g |
| COC[C@@H](CC(C)C)NC(=O)c1ccc(C)c(C)c1 | Sprague-Dawley rats, plasma | oral, 30 mg/kg | baseline: female over male | Cmax ratio | 4.67 |
| CSc1ccccc1C(=O)NCCn1cc(C(=O)NCc2cccc(C)n2)c(=O)c2cc3c(cc21)OC(F)(F)O3 | Sprague-Dawley rat, male, whole blood | intravenous, 5 mg/kg of parent compound | – | Cmax | 417 ± 45.8 ng/mL |
| CCc1cc(C(=O)NC)c2nccc(N3CCc4c(cc(Cn5ccnc5)cc4-c4cn(C)nc4C(F)(F)F)C3=O)c2c1 | Sprague Dawley rat, male, plasma | oral, 100 mg/kg once daily, 7 days, toxicokinetic satellite group | – | Cmax | 13100 ng/mL |
| Cc1cccc(CNC(=O)c2cn(CCNC(=O)c3ccccc3Sc3c([N+](=O)[O-])ncn3C)c3cc4c(cc3c2=O)OC(F)(F)O4)n1 | Sprague-Dawley rat, male, whole blood | intramuscular, 10 mg/kg of parent drug | – | Cmax | 26.2 ± 14.7 ng/mL |
| CN1CCC[C@H](CN2c3ccccc3Sc3ccccc32)C1.Cl | Wistar rat female, eye | oral, 16 mg/kg | – | Cmax | 961 ng/g |
| Cc1cc(C(=O)NC(C)(C)COc2cccc3c2C(N)=NS(=O)(=O)N3)cc(C)n1 | Sprague-Dawley rat, plasma | oral, 30 mg/kg, vehicle 1% methylcellulose | baseline: female over male | Cmax ratio | 1.18 |

Excerpt of the above:
| SMILES | test system | conditions | how to read | quantity | result |
| --- | --- | --- | --- | --- | --- |
| Cc1nc2cccc(OCC(C)(C)C(=O)NC(C)C)c2c(N)c1C(=O)O | male Sprague-Dawley rat, plasma | dietary, 60 mg/kg/day | baseline: day 90 over day 7 | Cmax ratio | 9.18 |
